Measurements gathered from unrelated publications.
Each line is one published result; not all experiments were run side by side. “And” joins repeats or separate records; there may be more than shown. ± gives the spread as reported.

SMILES	tested on	test	test system	setting	scale	quantity	result
CCN(CC)CC(=O)Nc1cccc(-n2cc(-c3ccc4ccc(-c5cn(-c6cccc(NC(=O)CN(CC)CC)c6)nn5)cc4c3)nn2)c1	RCC4	PCR angiogenesis array, item: CXCL9		5 x IC50, 4 h, normoxia	baseline: untreated	fold regulation	1.3
C=CC(=O)Nc1cccc(Cn2ncc3cnc(Nc4cnn(CCOC)c4)nc32)c1	human IKK-alpha	KINOMEscan		100 nM	baseline: control	binding	100%
CN1CCCNC(=O)c2cccc(c2)C(=O)NCCCN(C)CCCNc2cccc3c2C(=O)c2cccc(c2C3=O)NCCC1	SAS	RNA-Seq, item: MTIF2 mRNA		1 µM, 6 h	baseline: untreated cells	log2 fold change	0.818
Cc1ccc(NC(=O)CCN2CCCCCC2)cc1C			zebrafish larvae, 7 dpf	10 µM, minute 6		larval motion	7.2 ± 1.2 pixels/frame
C=C(NC(=O)c1csc(-c2nc3c(cc2O)-c2nc(cs2)C(=O)NC(C(C)O)C(=O)NC(=C(C)OC)c2nc(cs2)C(=O)NC2c4nc(cs4)C(=O)NC(COC(=O)c4c5c6c(cccc6n4O)COC(=O)C(OC4CC(C)(O)C(N(C)C)C(C)O4)C2OC5)c2nc-3cs2)n1)C(N)=O (stereo not shown)	Streptococcus pneumoniae		-4, immunocompromised mice, lung infection	bid dosing		ED50	4.94 mg/kg
Cn1ncc2cc(-c3cncc(Cl)c3N3CCC4(CCNC4=O)CC3)ccc21	LS174T	gene expression, microarray, item: SMPD1 mRNA		concentration not given, 24 h	baseline: untreated cells	log2 fold change	-2.49
CCN(C(=O)c1cc(F)ccc1Oc1nncnc1N1CCC2(C1)CN([C@H](CCCN(C)CCOC)C(C)C)C2)C(C)C	TE-671		muscle	168 h		GI50	> 10 µM
CN(C)C(=O)c1ccnc(N2Cc3cn(Cc4ccc(F)cc4F)nc3C2)n1			mouse, hippocampal slice, Schaffer collaterals	dose not given, interstimulus interval 50	baseline: second over first response	paired-pulse ratio	1.61 and 1.59 and 1.67 and 1.73 and 1.66 and 1.47 and 1.81
COC1CN([C@H]2CC[C@H]([C@@]3(C)Oc4c(Cl)cc(C(=O)NCc5c(SC)cc(C)[nH]c5=O)c(C)c4O3)CC2)C1		RNA-seq, item: BMP2 mouse homolog	mouse, HT-1376 xenograft, whole blood	dose not given	baseline: vehicle	log2 fold change	0.795
c1ccc(-c2n[nH]cc2-c2ccnc3ccccc23)nc1	RAD53 (Candida albicans)	kinase binding, MIB/MS competition	Candida albicans lysate	10 µM	baseline: DMSO	log2 fold change	1.78
CC(=O)[O-].O.O.O.O.[Mn+2].[O-]c1ccc(Br)cc1C=NCCN1CCOCC1		superoxide scavenging		160 µM		inhibition	29.3%
CC(C)c1ccc(N(C)c2ccc3c(c2)OCC[C@H]3CNc2cnccc2C(=O)O)cc1	SK-N-SH	cell growth or viability, ATP luminescence		7 days		IC50	≥ 10 µM
Cc1cc(C(C)(C)C)ccc1OCCOCCN(C)C			zebrafish larvae, 7 dpf	10 µM, minute 4		larval motion	13.8 ± 1.2 pixels/frame
COc1cc(O)ccc1CCC(c1ccc(O)cc1)c1cc2c(c(C)c1O)OC(c1ccc(O)cc1)CC2 (mixture of isomers)			human blood	30 µM, together with: A23187		14-HDHA level	793 ± 223 pg/mL
CCOC(=O)C1CCN(CCC(=O)Nc2ccccc2F)CC1			zebrafish larvae, 7 dpf	10 µM, minute 2		larval motion	0.7 ± 0.5 pixels/frame
C=CC(=O)N1[C@H](c2ccc3c(c2)OCO3)c2[nH]c3ccccc3c2C[C@@H]1C(=O)N1CCN(C)CC1	human cyclin E1 N112C-3xFLAG:CDK2	co-IP with TMT proteomics, item: KPNB1		concentration not given, Q14974	baseline: wild type DMSO	relative co-enrichment	116%
CC1(C)NC(=O)N(c2ccc(F)c(C(C)(F)F)c2)C1=O	Schistosoma mansoni		juvenile stage, infected mice	oral, single dose		ED50	51 mg/kg
O=C(CCN1CCN(C/C=C/c2ccccc2)CC1)Nc1ccccc1			zebrafish larvae, 7 dpf	10 µM, minute 2		larval motion	10 ± 1.7 pixels/frame
Nc1ncc(-c2cc(-c3cnn(CC(F)(F)F)c3)ncc2F)nc1C(=O)NC1CNCC(F)C1 (stereo not shown)	CDK4-cyclinD1	KINOMEscan competition binding		1 µM	baseline: DMSO control	remaining binding	100%
COc1ccc(N2CCN(CC(O)COc3ccc4ccccc4c3)CC2)cc1 (stereo not shown)			zebrafish larvae, 7 dpf	10 µM, minute 2		larval motion	10.8 ± 1.4 pixels/frame
CNS(=O)(=O)Nc1nccc(Cc2c(C)c3ccc(Oc4ncccc4F)cc3oc2=O)c1F	J82	cell viability		7 days		IC50	> 1 µM
Cc1ncsc1-c1ccc(C(C)NC(=O)C2CC(O)CN2C(=O)C(NC(=O)CCCCCCCCCCN2CCCC(Nc3ncc(Cl)c(Nc4ccccc4S(=O)(=O)C(C)C)n3)C2)C(C)(C)C)cc1 (stereo not shown)	22Rv1	RNA-seq, item: ZFPM1 mRNA		concentration not given	baseline: DMSO	log2 fold change	-1.69

Excerpt of the above:
SMILES	tested on	test	test system	setting	scale	quantity	result
CCN(CC)CC(=O)Nc1cccc(-n2cc(-c3ccc4ccc(-c5cn(-c6cccc(NC(=O)CN(CC)CC)c6)nn5)cc4c3)nn2)c1	RCC4	PCR angiogenesis array, item: CXCL9		5 x IC50, 4 h, normoxia	baseline: untreated	fold regulation	1.3
COc1cc(O)ccc1CCC(c1ccc(O)cc1)c1cc2c(c(C)c1O)OC(c1ccc(O)cc1)CC2 (mixture of isomers)			human blood	30 µM, together with: A23187		14-HDHA level	793 ± 223 pg/mL
